Results of several laboratories.
A part holds a random share of what one study measured. Changes are numbered by the printed parent chain.

Set 1
Target: CCNB2, cyclin fold, Cln2 fusion (human)
Technique: yeast growth competition, sequencing
Medium: yeast
Notes: weak parent motif
Baseline: not given
Direction: higher = stronger binding
Starting sequence: SCAPER docking peptide (human); SNARRSLNFGGST
| Change | normalised enrichment score |
| --- | --- |
| F9G | -0.0897 |
| R4G | -0.14 |
| R5P | -0.235 |
| R4I | -0.0556 |
| R4A | -0.0232 |
| N2F | -0.0506 |
| T13Y | -0.174 |
| G10F | 0.881 |
| N2H | 0.202 |
| S1V | 0.423 |

Set 2
Target: Histone acetyltransferase KAT6A, winged helix 1, GST fusion (KAT6A, Homo sapiens, UniProt Q92794, residues 1-85)
Technique: protein binding microarray
Form: double-stranded DNA, one strand shown
Medium: in vitro
Tested at: not given
Notes: 8-mer, flanks averaged, mean of 2 arrays, mostly near background
Baseline: not given
Direction: higher = stronger binding
Target sequence (chain): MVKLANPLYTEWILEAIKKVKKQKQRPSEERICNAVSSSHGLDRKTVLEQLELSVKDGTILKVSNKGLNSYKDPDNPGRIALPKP
| Sequence | E-score |
| --- | --- |
| AATAGTTA | 0.0166 |
| ATCATTCG | -0.143 |
| CCTCCACG | 0.0115 |
| CCAACAGA | -0.118 |
| ACTGTGTC | -0.123 |
| CCTCCGAA | -0.171 |
| CAATAGGC | 0.0451 |
| GGTCCTAC | -0.0226 |
| GATCGGCC | 0.296 |
| GTGGCTCA | 0.0469 |
| CACTACAG | -0.185 |
| ATATCCGA | 0.116 |
| CAAGATCG | 0.069 |
| CACTTGCG | 0.141 |
| AGTTTCCA | -0.183 |
| GCGTACGA | 0.235 |
| GGCTGAGA | -0.146 |

Set 3
Target: Interferon regulatory factor 5, full length, phosphomimetic (IRF5, Homo sapiens, UniProt Q13568-2, residues 1-514, S451D/S453D/S456D/S462D)
Technique: protein-binding microarray
Form: double-stranded DNA, one strand shown
Medium: in vitro
Tested at: 940 nM top
Notes: 60-bp whole probe
With: salmon DNA 0.4 mg/ml
Baseline: random background probes
Direction: higher = stronger binding
Constant ends, left off below: GCCTAGCAC … GTCTTGATTCGCTTGACGCTGCTG
| Sequence | fitted relative affinity [z-score] |
| --- | --- |
| GTGACTCTGAACCTTCAGCTCGTGCTA | -0.281 |
| TCTCGCTTCATCTCCCAGACTGTGCTA | 8.06 |
| TTAGGTTTCTGTATCGGTTAGTGCTAG | 7.48 |
| GCTTCTCCTTGGAATAGATCGTGCTAG | -0.0706 |
| TTAGAAGTGGGGTATCGATTAGTGCTA | 2.81 |
| TTAGGTTTCCTTTTCATTTAGTGCTAG | 2.35 |
| GACGGACCGCTTATCCTGACGTGCTAG | -0.12 |
| TCACTTTTCTGTTGTCTGACTGTGCTA | 1.78 |
| GACGATTTCAGTCTCGAGTCGTGCTAG | 2.76 |
| TACAGCAGGGAGGGAGGCACGTGCTAG | -0.321 |
| TTAGGTCTGGGTATCGGTTAGTGCTAG | 3.6 |
| GACGATCTCAGTATAGAGACGTGCTAG | 0.395 |
| TCACTTTCAGTTTTCCTACTGTGCTAG | 4.42 |
| GACGAACTGTGGTATCGAGACGTGCTA | 1.19 |
| TCAGTTCCCTATTTAAGACTGTGCTAG | 0.691 |

Mixed results
| Substance | target | test | test system | conditions | how to read | measurement | result |
| --- | --- | --- | --- | --- | --- | --- | --- |
| PhoQ, residues 284 288 289 292 302 303 SSTMSV | PhoP, residues 12 14 15 18 19 YHFSH (Escherichia coli, UniProt P23836) | Sort-seq, measured: YFP reporter | E. coli | PhoQ-PhoP variant library, with: 10 µM Mg2+ | baseline: high Mg2+ state, higher = stronger signaling | fold induction | 8.5 |
